Assay results of several laboratories.
Each numbered part is a random draw from the data of one study; scales do not carry over between parts. Changes are numbered by the printed parent chain.

Set 1
Molecule: PhoQ, residues 284 288 289 292 302 303 TVTVVA
Technique: Sort-seq
Item: YFP reporter
Medium: E. coli
Notes: PhoQ-PhoP variant library
Together with: 10 µM Mg2+
Reference: high Mg2+ state
Reading: higher = stronger signaling
Quantity: fold induction
target = PhoP, residues 12 14 15 18 19 TQALL (Escherichia coli, UniProt P23836); result = 18.2
target = PhoP, residues 12 14 15 18 19 NYFRM (Escherichia coli, UniProt P23836); result = 8.52
target = PhoP, residues 12 14 15 18 19 QYFSL (Escherichia coli, UniProt P23836); result = 6.39

Set 2
Target: Fragile X messenger ribonucleoprotein 1, C-terminal low-complexity region (Fmr1, Mus musculus, UniProt P35922)
Technique: RNA Bind-n-Seq
Form: RNA
Medium: in vitro
Tested at: 200 nM
Notes: whole 134-nt RNA, ends assumed
Together with: 150 mM KCl
Reference: input library
Reading: higher = stronger binding
Quantity: log2 enrichment
All sequences stand within: GGGAGUUCUACAGUCCGACGAUC … UGGAAUUCUCGGGUGUCAAGG
Sequence = GUCCUGUGCUACACAUCGUAUGUACCGAAUCGGAAAAAAAGGAAAAAAAGGAAAAAGGAAAGUAUUAUGUUACGCCGUUCGGAUCUGCAC; result = -0.714
Sequence = UGGGGGGUGGAUUUUGUUUAUUUUUUUAGCUCAUUUCCAGGGGUGGGAAUUUUUUUUUAAUAUGUGUCAUGAAUAAAGUUGUUUUUGAAA; result = 0.509
Sequence = CUCAAGUCCUGUGCUACACAUCGUAUGUACCGAAUCGGGCCGGCCGGGGCCGGAAAGUAUUAUGUUACGCCGUUCGGAUCUGCACUUCCA; result = -0.0914
Sequence = UUAAAGAAGAGGGUGUGCGGGACGUCCUUAAGGAUGUACUGCUCCCAUGGUACAAUGCCUAUCGCUUCUUAAUCCAGAACGUUCUGAGGC; result = -1.45
Sequence = AGUCCUGUGCUACACAUCGUAUGUACCGAAUCGGGUUUUUUUGGGUUUUUGGGAGGGAAAGUAUUAUGUUACGCCGUUCGGAUCUGCACU; result = 0.698
Sequence = CACAGACAACACGCACCCACACAGACACAGAGGGAAGGGGUUGGGAUGGGGACAGGGUGCACAGCAGGGCGGGGUAGGACCCCAGCCGCU; result = 1.17
Sequence = UGGGAGGUGGAUUUUGUUUAUUUUUUUAGCUCAUUUCCAGGGGUGGGAAUUUUUUUUUAAUAUGUGUCAUUAAUAAAGUUGUUUUUGAAA; result = 0.301
Sequence = UGGCCCUGGUGGCAUGCGGGGAGGAAGAGGUGGCCUCAUGGAUCGUGGUGGUCCCGGUGGACUGUUCAGAGGUGGCCGUGGUGGAGACAG; result = 0.103
Sequence = CACAGACAACACGCACCAAAACAGACACAGAGGGAAGGGGUUGGGAUGGGGACAGGGUGCACAGCAGGGCGGGGUAGGACCCCAGCCCCU; result = 1.27
Sequence = GUCCUGUGCUACACAUCGUAUGUACCGAAUCGGGUUUUUUUGGGUUUUUGGGAAAGGGAAAGUAUUAUGUUACGCCGUUCGGAUCUGCAC; result = -0.0886
Sequence = CAAGUCCUGUGCUACACAUCGUAUGUACCGAAUCAAACCCAAAUUUAAACCCAAAAAAGUAUUAUGUUACGCCGUUCGGAUCUGCACUUC; result = -0.145
Sequence = AAGUCCUGUGCUACACAUCGUAUGUACCGAAUCGGCCCCGGGCCCCGGGGCCCCGGAAAGUAUUAUGUUACGCCGUUCGGAUCUGCACUU; result = -0.559

Set 3
Target: Histone acetyltransferase KAT6A, winged helix 1, GST fusion (KAT6A, Homo sapiens, UniProt Q92794, residues 1-85)
Technique: protein binding microarray
Form: double-stranded DNA, one strand shown
Medium: in vitro
Tested at: not given
Notes: 8-mer, flanks averaged, mean of 2 arrays, mostly near background
Reference: not given
Reading: higher = stronger binding
Quantity: E-score
Target sequence (chain): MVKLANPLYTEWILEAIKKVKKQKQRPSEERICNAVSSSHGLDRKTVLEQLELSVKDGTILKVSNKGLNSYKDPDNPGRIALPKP
Sequence = ATGTGATA; result = 0.0102
Sequence = CGTAAGGA; result = -0.0509
Sequence = CGGGCGAA; result = 0.269
Sequence = CAGCAATA; result = -0.0779
Sequence = AAGGGGTC; result = -0.134
Sequence = ATACCTCG; result = -0.0822
Sequence = CTTCTCCC; result = -0.143
Sequence = CCCCCGTC; result = 0.273
Sequence = AATCCTGG; result = -0.14
Sequence = ACCTCACA; result = -0.0943
Sequence = CTACAAAG; result = -0.192
Sequence = AAAGTCAC; result = -0.0699
Sequence = CATACCGG; result = 0.226
Sequence = ACGGTTCT; result = 0.0105

Set 4
Target: CCNA1, cyclin fold, Cln2 fusion (human)
Technique: yeast growth competition, sequencing
Medium: yeast
Notes: weak parent motif
Reference: not given
Reading: higher = stronger binding
Quantity: normalised enrichment score
Starting sequence: CUX1 docking peptide (human); SRIRRELFIEEIQ; partner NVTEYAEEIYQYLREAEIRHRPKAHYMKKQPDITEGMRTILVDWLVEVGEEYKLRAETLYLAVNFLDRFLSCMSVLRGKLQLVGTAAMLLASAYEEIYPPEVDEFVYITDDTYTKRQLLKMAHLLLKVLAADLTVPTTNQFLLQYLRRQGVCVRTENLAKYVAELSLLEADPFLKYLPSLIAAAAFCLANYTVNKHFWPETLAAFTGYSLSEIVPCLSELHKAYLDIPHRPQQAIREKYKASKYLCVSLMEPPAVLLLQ
Change = R2A; result = 0.188
Change = R5A L7A; result = 0.116
Change = I3A; result = 0.263
Change = L7A; result = 0.399
Change = E6A; result = 0.573
Change = R5K F8L; result = 0.139
Change = R5K; result = 0.81
Change = F8A; result = 0.346
Change = S1A; result = 0.355
Change = I9A; result = 0.223

Excerpt of the above (set 4):
Change = S1A; result = 0.355
Change = R5K F8L; result = 0.139
Change = R5K; result = 0.81
